Measurements collected from several papers.
Parts stem from different laboratories: compare values within a part only. Several values in a cell are separate wells, animals, samples, runs or records.

Set 1 — technique: RNA Bind-n-Seq; form: RNA; matrix: in vitro; concentration: not given; reference: input RNA pool; reading: higher = stronger binding
Target: RING finger protein unkempt homolog, zinc fingers 1-6, GST-SBP tag (UNK, Homo sapiens, UniProt Q9C0B0, residues 30-357)
Sequence of UniProt Q9C0B0 (30-357, looked up): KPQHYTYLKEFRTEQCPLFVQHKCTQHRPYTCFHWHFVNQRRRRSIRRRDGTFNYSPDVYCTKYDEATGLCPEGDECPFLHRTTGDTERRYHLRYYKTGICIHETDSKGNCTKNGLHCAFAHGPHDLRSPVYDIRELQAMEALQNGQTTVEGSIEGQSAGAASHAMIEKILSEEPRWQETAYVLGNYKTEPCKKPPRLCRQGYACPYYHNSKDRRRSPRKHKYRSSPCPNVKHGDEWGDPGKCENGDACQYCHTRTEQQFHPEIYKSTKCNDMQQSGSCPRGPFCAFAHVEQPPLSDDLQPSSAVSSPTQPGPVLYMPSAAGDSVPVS
Notes: RNA with constant flanks, human and mouse sites, ends assumed
All sequences stand within: GGGAGUUCUACAGUCCGACGAUC … CAACAGAGGAUUGAGCAUCA
Strand	bound/input enrichment [ratio]
CGCUUCACCUCUAUGACACGAUUGUAUUAUCGGGAUGCCUCUGCCUGUGUUAUUAUGUUUGACGUUACCAAUGCCACUACCUUCAGCAACAGCCAGAGGUGGAAACAGGACCUAGACAGC	0.227
GGCACCAUCCAAGUGACCUUAUUUAACCCCAACCAGACUGUGGUGAAGAUGUUCCUUGUGACCUUUGACUUCUCGGACAUGCCUGCUGCCCACAUGACCUUCCUGCGCCAUCGCCUCUUC	0.297
AGACAAGGUGUCAAAACCAUGAGACAAAGGUUAAAUCCAACGUCCAACAAAAGUUCUCGAAAGUUAUUUGAUCAAGCCAACAAGCUUAAAAAAACGUGUGCACACCUUUUUACAGCUACA	0.12
CCGGACGACGGGCUCACAGCGCAGCAGCUCUUCAACUGCGGGGACGGCCUCACCUACAAUGAUUUUCUCAUUCUUCCUGGGUAUAUCGACUUCACUGCAGAUCAGGUGGACUUGACGUCU	0.186
UAAGAAAUUGUUAUUCUACUAAUAUUUACUUGUGAUUGUGUGACAAGUGUGUUUACAGAUUAUUGGUUACACUUCAAUUUACAGGGCAUAAACAAUGAUUAUCUAUUACUCUGAACUUUA	0.385
GCUUGUUUUACUGAAGGAUGUAUUAAAAAGUUUCCAUUCUGUCAAGUAAGUACAGAAGAAGGCAAAGGGAAGAUCUGGUGGAAUCUUCGAAAAACCUGCUACAGUAUUGUUGAGCACAAC	0.481
GGCUAUCUGGUAUCUGUAGAUGGCUACAUGAACAUGCAGCUUGCAAAUACAGAAGAAUACAUAGAUGGAGCUUUGUCUGGACAUCUGGGUGAAGUUUUAAUAAGGUGUAAUAAUGUCCUU	0.164

Set 2 — technique: protein-binding microarray; form: double-stranded DNA, one strand shown; matrix: in vitro; concentration: 940 nM top; notes: 60-bp whole probe; together with: salmon DNA 0.4 mg/ml; reference: random background probes; reading: higher = stronger binding
Target: Interferon regulatory factor 5, full length, phosphomimetic (IRF5, Homo sapiens, UniProt Q13568-2, residues 1-514, S451D/S453D/S456D/S462D)
All sequences stand within: GCCTAGCAC … GTGCTAGGTCTTGATTCGCTTGACGCTGCTG
Strand	fitted relative affinity
GACGGACTTGGACTGGGGAC	-0.567 z-score
CTGGGTATTTTTCTAAACCA	0.817 z-score
TTCTGAGCCTGGGTGGATGG	-0.767 z-score
TTAGACTTCAGTTCCGATTA	0.721 z-score
GACGAACTGAGCATCGAGAC	-0.373 z-score
GACGAACAGAGTATCGAGAC	0.646 z-score
GACGGTCTGCTTCTCCTGAC	0.118 z-score

Set 3 — technique: RNA Bind-n-Seq; form: RNA; matrix: in vitro; concentration: 365 nM; reference: no-protein control; reading: higher = stronger binding
Target: RNA binding protein fox-1 homolog 2, RRM domain, GST-SBP tag (RBFOX2, Homo sapiens, UniProt O43251-10, residues 100-194)
Notes: natural RNA segment, single round, ends assumed
Residues (chain): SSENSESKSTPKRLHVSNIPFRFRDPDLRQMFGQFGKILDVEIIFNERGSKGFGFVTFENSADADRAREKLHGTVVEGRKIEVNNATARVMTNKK
Strand	RBNS enrichment (R)
GGGAGUUCUACAGUCCGACGAUCCCGCCUGGAUGGACUGAGGAAUCGUGGGCCAGGCUGCACCUGGGAUUCCUUGCGGAAUUCUGUGGGAGAAAAGAUCCUAUCCCUUCGCAGUUGCUCCGUGGGCUCUCUAGUGGAAUUCUCGGGUGCCAA	0.642
GGGAGUUCUACAGUCCGACGAUCGGAUGGAUGGCAGGGAAUAGAAGCUAGGACUGGAGUUCCUGUCCUGCCGCCUUGGUUCCUGCAGUGCCCUGCGGUGCGGACAGGACUGCAUCUGAUAGUACACAGACUGAUGGAAUUCUCGGGUGCCAA	0.606
GGGAGUUCUACAGUCCGACGAUCACUUUGACCCUCAGACUGGCAAAUACUACGAGUUGGUCUAGCUCCUUCAUCGUAACAGCAGCGUGAAGUCCACAAUGGGCACCGUGACUGGGUGUUGGGCAUGGGGGCCCUGGAAUUCUCGGGUGCCAA	0.545
GGGAGUUCUACAGUCCGACGAUCGGCAGAGCAUUUCUGGUCAGUUUCUCCAUGGUGCCUCCCACCCCUUUGUAAAGUGGAUGGACAUGAUGGAAUUCAGUUGUCUCACCCUGAUAGCCUGGGUGUUGAUAUUCUGGAAUUCUCGGGUGCCAA	0.342

Single results of other studies
Substance	target	assay	test system	conditions	scale	measurement	value
PhoQ, residues 284 288 289 292 302 303 SNSSNI	PhoP, residues 12 14 15 18 19 LWHCS (Escherichia coli, UniProt P23836)	Sort-seq, item: YFP reporter	E. coli	PhoQ-PhoP variant library, together with: 10 µM Mg2+	reference: high Mg2+ state, higher = stronger signaling	fold induction	4.71 and 6.91

Some of these lines once more (set 3):
Strand	RBNS enrichment (R)
GGGAGUUCUACAGUCCGACGAUCACUUUGACCCUCAGACUGGCAAAUACUACGAGUUGGUCUAGCUCCUUCAUCGUAACAGCAGCGUGAAGUCCACAAUGGGCACCGUGACUGGGUGUUGGGCAUGGGGGCCCUGGAAUUCUCGGGUGCCAA	0.545
GGGAGUUCUACAGUCCGACGAUCGGCAGAGCAUUUCUGGUCAGUUUCUCCAUGGUGCCUCCCACCCCUUUGUAAAGUGGAUGGACAUGAUGGAAUUCAGUUGUCUCACCCUGAUAGCCUGGGUGUUGAUAUUCUGGAAUUCUCGGGUGCCAA	0.342
